Published values pooled from the literature.
Compare with care: the assays were run in different laboratories. ± gives the spread as reported.

For `COCc1cc(C(=O)Nc2cc([C@H]3CC[C@@H](OC(=O)NC(C)C)C3)[nH]n2)n(C)n1`, the Tmax was 7.5 h (OVCAR-3 xenograft, NOD/SCID gamma mice, plasma; oral, 75 twice daily, tumour growth inhibition study).
For `C[C@H]1CN(C(=O)CC#N)[C@]12CCN(c1ncnc3[nH]ccc13)C2`, “participants with treatment-related TEAEs” read 0% (human; oral, 3 mg single dose).
With `Cc1cc(C)c(CNC(=O)c2cc(Cl)c3c(c2C)O[C@@](C)([C@H]2CC[C@H](N(C)C)CC2)O3)c(=O)[nH]1` the cumulative excretion was 79.8% (refers to: total radioactivity; human, fasted, feces; oral, 200 mg [14C] single dose, 0 to 360 h; relative to: dose).
Under “incidence of Stomatitis”, `NC1(C(=O)N[C@@H](CCO)c2ccc(Cl)cc2)CCN(c2nc[nH]c3nccc2-3)CC1` is recorded as 0% (metastatic CRPC patients; 480 mg b.i.d., grade 3 to 4, treatment-related, together with: enzalutamide 160 mg daily).
`OC[C@H]1O[C@@H](c2ccc(F)c(Cc3cc4ccccc4s3)c2)[C@H](O)[C@@H](O)[C@@H]1O` — result for “hypoglycaemia-related adverse event”: 5% (Japanese patients, type 1 diabetes; oral, 50 mg/day, onset day 10; relative to: patients).
For `O=C(CCCCCCC(=O)Nc1ccc(CC[18F])cc1)NO`, the tissue uptake was 1.7 ± 0.4 %ID/g (athymic nu/nu male mice, LNCaP xenograft, spleen; intravenous, 1 h).
`N#C[C@@]1(c2ccc3c(N)ncnn23)O[C@H](CO)[C@@H](O)[C@H]1O` has a recovery of 109% (plasma protein binding; mouse plasma; 100 µM, time not given).
Under “patients with adverse event”, `Cn1ncnc1[C@H]1c2n[nH]c(=O)c3cc(F)cc(c23)N[C@@H]1c1ccc(F)cc1` is recorded as 12% (refers to: Dyspepsia; advanced solid tumour patients; oral, 0.5 mg single dose, alone or 2 with itraconazole).
`COc1cccc(OC)c1-c1cc(C(=O)NC2(C(=O)O)C3CC4CC(C3)CC2C4)nn1-c1ccc(C(=O)N(C)CCCN(C)CCCN(C)C(=O)CN2CCN(CC(=O)[O-])CCN(CC(=O)[O-])CCN(CC(=O)[O-])CC2)cc1C(C)C.[177Lu+3]` (stereo not drawn) gave a tissue uptake of 0.133 %ID/g (mouse, HT-29 xenograft, heart; 24 h post injection).
For `O=C([O-])CCCCCCCNC(=O)c1ccccc1O.[Na+]`, the AUC(0-24h) was 1470 ng·h/mL (human; oral, dose not given, steady state).
`CC(C)C[C@H](NC(=O)[C@@H](Cc1c[nH]c2ccccc12)NC(=O)[C@H](Cc1ccc(O)cc1)NC(=O)[C@H](CO)NC(=O)[C@H](Cc1c[nH]c2ccccc12)NC(=O)[C@H](Cc1c[nH]cn1)NC(=O)[C@@H]1CCC(=O)N1)C(=O)N[C@@H](CCCNC(=N)N)C(=O)N1CCC[C@H]1C(=O)NCC(N)=O`: “patients, drug-related Constipation TEAEs” 0% (Chinese CPP boys; intramuscular, 22.5 mg, 12 months, day 1, month 6).
`CS(=O)(=O)n1cc2c(n1)CN([C@H]1CO[C@H](c3cc(F)ccc3F)[C@@H](N)C1)C2` has an AUC(0-168 h) of 8.75 µM·h (healthy Japanese men, plasma; oral, 10 mg, fed, single dose).
The half-life median of `COC(=O)N[C@@H](C)CNc1nccc(-c2cn(C(C)C)nc2-c2cc(Cl)cc(NS(C)(=O)=O)c2F)n1` is reported as 3.72 h (humans, plasma; oral, day 14, steady state, together with: binimetinib).
For `CCOc1c([C@H](C)n2nc(C)c3c(N)ncnc32)cc(Cl)c(F)c1[C@@H]1CNC(=O)C1`, “half-life geometric mean” read 9.1 h (patients with B-cell malignancies, plasma; oral, 30 mg, day 15, monotherapy).
With `C[C@H]1C=C(Cc2ccccc2)C(=O)O1` the DT50 water was 7.82 days (Staffordshire loam sediment, aerobic dark; 20 °C).
For `O=C1NCCc2nc(OCc3cccc(F)c3)ccc21`, “Irwin test score” read 0 (refers to: tail pinch; Sprague-Dawley rat male; oral, 100 mg/kg, 0 min; relative to: baseline, direction not given).
`COc1cc2nccc(Oc3ccc(NC(=O)NC4CC4)c(Cl)c3)c2cc1C(N)=O` gave an AUC(0-t) increase of 50.2% (Sprague-Dawley rats male, plasma; oral, dose not given, together with: isavuconazole; relative to: without isavuconazole).
For `N#Cc1ccc2c(c1)[C@H]1CCCN(C(=O)c3ccc4[nH]cnc4c3)[C@H]1C2`, “median ACTH level” read 7.6 pmol/L (human; 80 mg, day 7).

For quick reference, copied from above:
`CS(=O)(=O)n1cc2c(n1)CN([C@H]1CO[C@H](c3cc(F)ccc3F)[C@@H](N)C1)C2` has an AUC(0-168 h) of 8.75 µM·h (healthy Japanese men, plasma; oral, 10 mg, fed, single dose).
The half-life median of `COC(=O)N[C@@H](C)CNc1nccc(-c2cn(C(C)C)nc2-c2cc(Cl)cc(NS(C)(=O)=O)c2F)n1` is reported as 3.72 h (humans, plasma; oral, day 14, steady state, together with: binimetinib).
